Results gathered from unrelated publications.
A part holds a random share of what one study measured. Substitutions count along the parent as printed.

Set 1
Target: CREB3, bZIP domain (human)
Technique: DHFR protein complementation
Medium: yeast
Notes: single substitutions, most at no-binding floor
Reference: wild-type JUN-FOS pair
Direction: higher = stronger binding
Starting sequence: JUN, bZIP domain (human); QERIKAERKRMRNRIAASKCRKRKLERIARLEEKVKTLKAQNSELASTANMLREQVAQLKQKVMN; partner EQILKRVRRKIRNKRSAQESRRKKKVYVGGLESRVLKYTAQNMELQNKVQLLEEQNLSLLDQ
The binding fitness of `A40F` is reported as -1.49 natural log.
The binding fitness of `A46R` is reported as -1.44 natural log.
`E32Q` has a binding fitness of -1.38 natural log.
For `V35S`, the binding fitness was -1.5 natural log.
The binding fitness of `I28P` is reported as -1.48 natural log.
With `A49P` the binding fitness was -1.48 natural log.
With `Q41S` the binding fitness was -1.5 natural log.
With `V56Q` the binding fitness was -1.52 natural log.

Set 2
Target: Protein C-ets-1 (ETS1, Homo sapiens, UniProt P14921, residues 1-441, K379A, full length assumed)
Chain of UniProt P14921 (whole entry, unmodified, looked up): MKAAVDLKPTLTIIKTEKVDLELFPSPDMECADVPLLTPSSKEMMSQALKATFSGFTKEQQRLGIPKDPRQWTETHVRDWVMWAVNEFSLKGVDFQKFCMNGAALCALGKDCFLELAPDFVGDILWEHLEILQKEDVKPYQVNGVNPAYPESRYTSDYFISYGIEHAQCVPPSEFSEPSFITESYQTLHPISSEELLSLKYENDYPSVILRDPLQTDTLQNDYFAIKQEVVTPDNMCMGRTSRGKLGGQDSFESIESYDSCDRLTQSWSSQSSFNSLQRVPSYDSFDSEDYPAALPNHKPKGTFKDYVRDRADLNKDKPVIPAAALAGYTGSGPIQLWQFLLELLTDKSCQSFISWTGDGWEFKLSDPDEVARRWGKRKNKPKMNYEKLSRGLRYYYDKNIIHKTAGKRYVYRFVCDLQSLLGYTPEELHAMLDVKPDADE
Technique: protein-binding microarray
Form: double-stranded DNA, one strand shown
Medium: in vitro
Tested at: not given
Notes: k-mer, scored over probes, only values ≥0.25
Direction: higher = stronger binding
The E-score of `CCCGTCAA` is reported as 0.274.
`AACTAATA` gave an E-score of 0.297.
The E-score of `CCATACCG` is reported as 0.292.
For `CCGGGAAG`, the E-score was 0.352.
`CGGCGGAG` has an E-score of 0.286.
For `CCGACGGC`, the E-score was 0.325.
`ACCAACAC` gave an E-score of 0.302.
With `ATCACACC` the E-score was 0.263.

Set 3
Target: TAR DNA-binding protein 43, full length, His tag (TARDBP, Homo sapiens, UniProt Q13148, residues 1-414)
Technique: RNA Bind-n-Seq
Form: RNA
Medium: in vitro
Tested at: 20 nM
Notes: 6-mer, flanks averaged, single round
With: 150 mM LiCl
Reference: input library
Direction: higher = stronger binding
Under “6-mer enrichment (R)”, `AGCUGU` is recorded as 0.971.
`AUGUCG` — result for “6-mer enrichment (R)”: 1.
For `GUGAAA`, “6-mer enrichment (R)” read 0.994.
`AGUUAC`: “6-mer enrichment (R)” 0.871.
`GCAUGU`: “6-mer enrichment (R)” 1.18.
For `CACCUC`, “6-mer enrichment (R)” read 0.942.
Under “6-mer enrichment (R)”, `AAGCUU` is recorded as 0.847.
For `CACCGU`, “6-mer enrichment (R)” read 0.911.

Single results of other studies
Starting sequence: PafA, mature enzyme, eGFP fusion (Elizabethkingia meningoseptica, UniProt Q9KJX5); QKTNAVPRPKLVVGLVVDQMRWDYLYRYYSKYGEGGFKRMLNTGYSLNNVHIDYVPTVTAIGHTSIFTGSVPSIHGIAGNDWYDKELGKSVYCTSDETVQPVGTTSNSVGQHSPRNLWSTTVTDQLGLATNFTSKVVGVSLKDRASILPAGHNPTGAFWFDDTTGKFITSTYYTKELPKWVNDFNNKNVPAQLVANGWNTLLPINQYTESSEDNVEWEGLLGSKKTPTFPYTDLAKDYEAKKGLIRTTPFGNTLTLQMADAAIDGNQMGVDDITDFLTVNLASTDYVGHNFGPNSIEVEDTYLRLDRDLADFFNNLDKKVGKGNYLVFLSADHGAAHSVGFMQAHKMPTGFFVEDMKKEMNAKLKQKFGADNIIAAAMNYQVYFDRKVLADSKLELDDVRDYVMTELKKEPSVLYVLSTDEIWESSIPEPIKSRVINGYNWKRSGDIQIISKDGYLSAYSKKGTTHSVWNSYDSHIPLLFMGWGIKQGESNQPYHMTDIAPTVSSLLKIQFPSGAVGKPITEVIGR
`G222A` — result for “oxyanion analog dissociation constant”: 1.59 µM (tungstate, free oxyanion; microfluidic competitive inhibition; in vitro, cell-free expressed; not given, derived from inhibition constants, unchanged parent 2230 nM; lower = stronger binding).

Repeated from above (set 3):
`AUGUCG` — result for “6-mer enrichment (R)”: 1.
`AGUUAC`: “6-mer enrichment (R)” 0.871.
For `CACCUC`, “6-mer enrichment (R)” read 0.942.
